Published values gathered from unrelated publications.
Protocols differ between the studies behind these lines. ± marks the error that the study gave.

`CCCCCCCCCCCCNC(=S)NCCCC[C@H](NS(C)(=O)=O)C(=O)N[C@H](C)C(=O)N[C@@H](CCCNC(=N)N)C(N)=O` gave an EC50 of 3.24 to 6.12 µM (Jurkat; cell growth or viability, MTT; 72 h).
`Cc1cccc(-c2cccc(C)n2)n1.Cc1cccc(-c2cccc(C)n2)n1.F[P-](F)(F)(F)(F)F.F[P-](F)(F)(F)(F)F.[Ru+2].c1cc2ccc3ccc(-c4nc5c6cccnc6c6ncccc6c5[nH]4)c4ccc(c1)c2c34` gave an EC50 of 38.4 ± 1.1 µM (SK-MEL-28; cell viability; 1% O2, added: blue light 453 nm, 100 J/cm2).
With `CCCCCCCCCCCCNC(=S)NCCCC[C@H](NC(=O)OCc1ccccc1)C(=O)N[C@H](C)C(=O)N[C@@H](CCCNC(=N)N)C(N)=O` the EC50 was 1.17 to 6.89 µM (Jurkat; cell growth or viability, MTT; 72 h).
The EC50 of `C=C(NC(=O)c1csc(-c2cccnc2)n1)C(=O)NC(=C)C(=O)OC` is reported as 27.8 µM (C4-2; cell growth or viability).
`O=c1c(-c2cnn(-c3ccccc3)c2)c(C(F)(F)F)oc2c(O)c(O)ccc12` has an EC50 of roughly 14 µM (ML-2; apoptosis, annexin V flow cytometry).
For `Cc1cccc(-c2cccc(C)n2)n1.Cc1cccc(-c2cccc(C)n2)n1.F[P-](F)(F)(F)(F)F.F[P-](F)(F)(F)(F)F.[Ru+2].c1ccc(-c2nc3c4cccnc4c4ncccc4c3[nH]2)cc1`, the EC50 was 100 ± 14 µM (SK-MEL-28; cell viability; 1% O2, added: blue light 453 nm, 100 J/cm2).
For `COc1ccc(NC(=O)c2ccc3[nH]c(-c4ccc(N(C)C)cc4)nc3c2)cn1`, the EC50 was 9.51 µM (ZR-75-1; cell growth, CellTiter-Glo).
For `[Cl-].[Cl-].[Ru+2].c1ccc(-c2ccccn2)nc1.c1ccc(-c2ccccn2)nc1.c1ccc2cc3nc4c5cccnc5c5ncccc5c4nc3cc2c1`, the EC50 was 0.083 ± 0.001 µM (SK-MEL-28; photocytotoxicity; visible light 400-700 nm, 100 J/cm2, oxygen 18.5%).
`Cc1cccc(-c2cccc(C)n2)n1.Cc1cccc(-c2cccc(C)n2)n1.F[P-](F)(F)(F)(F)F.F[P-](F)(F)(F)(F)F.[Ru+2].c1ccc2c(-c3nc4c5cccnc5c5ncccc5c4[nH]3)c3ccccc3cc2c1` has an EC50 of 26.4 ± 1 µM (SK-MEL-28; cell viability; 1% O2, added: green light 523 nm, 100 J/cm2).
With `C=C(NC(=O)c1csc(-c2ccc(NC(=O)CCCCCBr)cc2)n1)C(=O)NC(=C)C(=O)OC` the EC50 was 2.9 µM (SCC-90; cell viability).

Excerpt of the above:
With `C=C(NC(=O)c1csc(-c2ccc(NC(=O)CCCCCBr)cc2)n1)C(=O)NC(=C)C(=O)OC` the EC50 was 2.9 µM (SCC-90; cell viability).
